Measured values pooled from the literature.
Each numbered part is a random draw from the data of one study; scales do not carry over between parts. Substitutions count along the parent as printed.

Study 1
Target: RNA binding protein fox-1 homolog 2, RRM domain, GST-SBP tag (RBFOX2, Homo sapiens, UniProt O43251-10, residues 100-194)
Method: RNA Bind-n-Seq
Molecule type: RNA
Matrix: in vitro
Tested at: 365 nM
Notes: natural RNA segment, single round, ends assumed
Reference: no-protein control
Direction: higher = stronger binding
Construct (chain): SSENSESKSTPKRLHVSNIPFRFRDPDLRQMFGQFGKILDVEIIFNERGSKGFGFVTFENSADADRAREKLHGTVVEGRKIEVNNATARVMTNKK
For `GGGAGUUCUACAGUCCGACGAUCUAUCCUGGGUAGGGUGAAAACCCUCAAGUAGUAUUUUUAUGAGCCUGGCAUGGUGAUAUAACUGAAAUCCCUGCACUUGGGAGGGUCACAAGUUUGAGGACCACCUUGGUUGGAAUUCUCGGGUGCCAA`, “RBNS enrichment (R)” read 1.76.
`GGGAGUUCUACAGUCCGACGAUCAACUGUAUUAAAAAGGCUCUGUUUUUAAAGAUCAAUUGUCAUUCCUGUGGGGACAGUGGCUACUGAGAAAUCUACAUUGUAAGAGAAGACAAUGAAAGACCCUGGCCCUGUGGAAUUCUCGGGUGCCAA`: “RBNS enrichment (R)” 0.554.
`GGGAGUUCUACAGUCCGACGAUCUUUGGAGCAGAUCCUGUCUGCAUUAUCAGGAAACCAGCAAUUCAGUUCACGGGUCAGCAGUGGCAGCUCGACCCACUCGCAAACACUUCACGGAUACACCAGCAGUGUUGUGGAAUUCUCGGGUGCCAA` — result for “RBNS enrichment (R)”: 1.4.
For `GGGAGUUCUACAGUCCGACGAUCUGCUCCUUCUACCUACCGGUCAGUGCAUUCAGAAGUGGACAGCUCCCGGAAGGCCGAGUUCUGGUAUUGCUGAGGUUGCCCUGACAUAGCUUUCCAUGUAUCCUGUUAUUUGGAAUUCUCGGGUGCCAA`, “RBNS enrichment (R)” read 0.445.
Under “RBNS enrichment (R)”, `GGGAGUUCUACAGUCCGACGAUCAUUACUUUAACUAUUGUUAUAAAAAGCCUGCCAUUUUUAAUAUGUGGUUUGGGGGAUUUUUGUUUGUUUUUCCUGUUUGGGGGUUUUGUUUGUUGUUUUGGUUUUUUUUGUGGAAUUCUCGGGUGCCAA` is recorded as 4.36.
Under “RBNS enrichment (R)”, `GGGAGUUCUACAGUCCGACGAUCUGUGGGAGACAGCAGCCUGUAUGUGGUGUGGGGCGUGGAUCGAGUGUAGCUGUGAAAUCCAUAUAUAUGAAAUGUCCUGCGGGAUACAGUCUUAGCUGACUUUUUUUUACUGGAAUUCUCGGGUGCCAA` is recorded as 1.67.
For `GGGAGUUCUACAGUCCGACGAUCUCUCGGUCCACGCUGCUUUCUUCCCAAAGGACAUGUAUAUUUGCAGAGCUCCACAUACAGAAACACAUUAUUUUGCAGAAAUAGGUGUUUUUAAGAAGUUUUACUACAGGUGGAAUUCUCGGGUGCCAA`, “RBNS enrichment (R)” read 0.336.

Study 2
Target: Microphthalmia-associated transcription factor, full length (MITF, Homo sapiens, UniProt O75030-10, residues 1-413)
Method: protein-binding microarray
Molecule type: double-stranded DNA, one strand shown
Matrix: in vitro
Tested at: not given
Notes: k-mer, scored over probes, only values ≥0.25
Direction: higher = stronger binding
Construct (chain): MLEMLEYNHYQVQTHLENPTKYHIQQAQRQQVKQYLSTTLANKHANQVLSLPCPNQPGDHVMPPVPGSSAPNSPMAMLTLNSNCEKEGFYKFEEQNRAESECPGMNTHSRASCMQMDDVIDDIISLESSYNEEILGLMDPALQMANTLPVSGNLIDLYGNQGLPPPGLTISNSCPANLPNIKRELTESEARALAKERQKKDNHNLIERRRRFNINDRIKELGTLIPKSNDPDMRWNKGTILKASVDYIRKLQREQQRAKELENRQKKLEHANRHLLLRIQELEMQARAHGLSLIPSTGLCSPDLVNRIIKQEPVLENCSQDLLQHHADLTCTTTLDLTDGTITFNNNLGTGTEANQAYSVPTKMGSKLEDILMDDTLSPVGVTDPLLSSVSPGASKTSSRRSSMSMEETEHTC
`CGCGTGA` has an E-score of 0.478.
`CATGTCA` gave an E-score of 0.336.
For `AGCACGA`, the E-score was 0.285.
With `CGTCACA` the E-score was 0.289.
The E-score of `GTCACAA` is reported as 0.362.
`ACGTGCG` gave an E-score of 0.388.
`ATCACAT` gave an E-score of 0.415.
`ACGCGTG` has an E-score of 0.387.
For `ACACGCG`, the E-score was 0.397.
`CGTGACA` gave an E-score of 0.459.
With `GTGATCA` the E-score was 0.313.

Study 3
Target: CCNB2, cyclin fold, Cln2 fusion (human)
Method: yeast growth competition, sequencing
Matrix: yeast
Notes: weak parent motif
Reference: not given
Direction: higher = stronger binding
Starting sequence: SCAPER docking peptide (human); SNARRSLNFGGST; partner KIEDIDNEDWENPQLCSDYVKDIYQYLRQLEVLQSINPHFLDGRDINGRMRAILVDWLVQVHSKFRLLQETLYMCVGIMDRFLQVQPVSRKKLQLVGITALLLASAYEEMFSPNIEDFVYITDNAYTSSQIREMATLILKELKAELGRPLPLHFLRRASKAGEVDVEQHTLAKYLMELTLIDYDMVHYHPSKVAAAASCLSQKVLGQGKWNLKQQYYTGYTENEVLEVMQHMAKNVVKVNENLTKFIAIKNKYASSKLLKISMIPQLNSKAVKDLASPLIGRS
`R5P` — result for “normalised enrichment score”: -0.235.
`N8M` — result for “normalised enrichment score”: 0.328.
`R4M` — result for “normalised enrichment score”: -0.243.
Under “normalised enrichment score”, `G10F` is recorded as 0.881.
For `N2T`, “normalised enrichment score” read 0.172.
Under “normalised enrichment score”, `A3F` is recorded as 0.805.
For `G10M`, “normalised enrichment score” read -0.0111.
`F9G`: “normalised enrichment score” -0.0897.
`T13C` — result for “normalised enrichment score”: 0.387.

Single results of other studies
`PhoQ, residues 284 288 289 292 302 303 HSYLQF` has a fold induction of 13.1 (PhoP, residues 12 14 15 18 19 YHFSH (Escherichia coli, UniProt P23836); Sort-seq, item: YFP reporter; E. coli; PhoQ-PhoP variant library, together with: 10 µM Mg2+; reference: high Mg2+ state, higher = stronger signaling).

Repeated from above (study 2):
With `GTGATCA` the E-score was 0.313.
`ATCACAT` gave an E-score of 0.415.
For `ACACGCG`, the E-score was 0.397.
`CGCGTGA` has an E-score of 0.478.
